Measurements of several laboratories.
Every numbered part comes from another study and shows a few of its results, in no order.

Study 1
Target: Sal-like protein 4, full length isoform A (SALL4, Homo sapiens, UniProt Q9UJQ4, residues 1-1053)
Sequence of UniProt Q9UJQ4 (whole entry, looked up): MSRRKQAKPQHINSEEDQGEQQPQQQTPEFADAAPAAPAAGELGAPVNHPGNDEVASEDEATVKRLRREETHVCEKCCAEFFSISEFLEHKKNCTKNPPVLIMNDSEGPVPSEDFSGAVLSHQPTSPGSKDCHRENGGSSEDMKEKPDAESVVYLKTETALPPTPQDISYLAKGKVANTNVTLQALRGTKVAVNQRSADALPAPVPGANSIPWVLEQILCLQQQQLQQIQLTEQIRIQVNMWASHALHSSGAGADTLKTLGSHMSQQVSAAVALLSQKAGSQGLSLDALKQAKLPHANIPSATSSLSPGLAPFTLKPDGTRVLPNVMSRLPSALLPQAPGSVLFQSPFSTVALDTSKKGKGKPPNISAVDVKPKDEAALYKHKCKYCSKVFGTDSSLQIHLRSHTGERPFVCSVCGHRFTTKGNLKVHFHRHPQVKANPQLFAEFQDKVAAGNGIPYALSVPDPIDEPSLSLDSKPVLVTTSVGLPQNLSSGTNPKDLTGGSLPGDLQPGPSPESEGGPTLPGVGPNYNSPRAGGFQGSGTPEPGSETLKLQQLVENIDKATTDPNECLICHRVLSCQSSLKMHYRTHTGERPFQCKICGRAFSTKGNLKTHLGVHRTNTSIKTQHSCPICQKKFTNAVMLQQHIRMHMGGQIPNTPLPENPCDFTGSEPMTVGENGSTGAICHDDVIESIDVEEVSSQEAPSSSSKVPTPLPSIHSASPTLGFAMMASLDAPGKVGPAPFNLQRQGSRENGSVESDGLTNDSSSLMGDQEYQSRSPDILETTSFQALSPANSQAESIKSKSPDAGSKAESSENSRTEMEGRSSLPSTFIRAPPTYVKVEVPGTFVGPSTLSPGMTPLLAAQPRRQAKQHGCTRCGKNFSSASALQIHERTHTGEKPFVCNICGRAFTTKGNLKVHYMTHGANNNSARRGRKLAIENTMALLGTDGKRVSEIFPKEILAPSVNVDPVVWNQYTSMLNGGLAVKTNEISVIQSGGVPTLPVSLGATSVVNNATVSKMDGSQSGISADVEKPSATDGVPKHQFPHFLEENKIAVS
Method: universal PBM
Form: double-stranded DNA, one strand shown
Matrix: in vitro
Concentration: 600 nM
Setting: 8-mer, flanks averaged, mean of replicates
Direction: higher = stronger binding
Endpoint: E-score
GTTTATTA: 0.403
ACATGAAC: 0.18
AGCAACCG: -0.0982
CTGTACAG: 0.105
ACTGGGCA: -0.175
GATCTCAA: 0.0578
AGTACAGG: -0.0119
ACTGGGTA: -0.0449
AGGCTCCA: -0.215
AGTTATTC: 0.28
GACTCTGC: -0.149
ACATTGCC: -0.0379
AAAGCAGC: -0.138
ACGGATTA: 0.187
GTATTAAC: 0.195
AGGGACAC: -0.122
AATGCATA: 0.226
CCTAGGTC: -0.249
AAGAGTCC: -0.194
CTAATAAA: 0.335
ACCCATAG: -0.175
CTATTCAG: 0.123
AAGCTAAA: 0.092
AATCACTA: 0.16
ACTGACAC: -0.0157

Study 2
Cell line: yeast with cyclin F-Cln2 chimera
Read-out: cell growth
Mode: binder
Method: competitive growth deep sequencing
Form: peptide
Concentration: concentration not given
Setting: peptide tiling library
Direction: direction not given
Endpoint: growth enrichment score
NFETPEAETPIRSPFK: -0.407
VRDLSYRLVFLACCVA: 1.17
FQDSGYNELKSCSFDN: 0.46
LENIEPLQVSFAVLSS: -0.565
RNRGPKLNAMLRLGVL: 1.18
DGCSPIKNWSPMRL: 0.3
AEHPKPSACRNLFGPV: 4.56
KDDDKAWEYEERDRRS: -0.478
SGYLTDENEVGFRG: -0.0956
TSPGPVLLHPSPSTTQ: -0.0715
QNPCGSKACRRLFGPV: 3.89
PQWPCGKHKRVLIFAS: 1.34
GAEELEDLVHFSVSEL: 0.72
VLVRTSACRSLFGPVD: 4
NNIRKALSFDNRGEEH: 1.13
VLPGGVPSPGASLTSM: 0.623
TRRRLFVENDSP: 4.1

Study 3
Target: PABPC1L2, full length, GST fusion (mouse, UniProt A0ABA7IW68)
Method: RNAcompete
Form: RNA
Matrix: in vitro
Concentration: 20 nM
Setting: 7-mer, probes averaged, single round
Baseline: mean of 7-mers
Direction: higher = stronger binding
Endpoint: 7-mer Z-score
Residues (chain): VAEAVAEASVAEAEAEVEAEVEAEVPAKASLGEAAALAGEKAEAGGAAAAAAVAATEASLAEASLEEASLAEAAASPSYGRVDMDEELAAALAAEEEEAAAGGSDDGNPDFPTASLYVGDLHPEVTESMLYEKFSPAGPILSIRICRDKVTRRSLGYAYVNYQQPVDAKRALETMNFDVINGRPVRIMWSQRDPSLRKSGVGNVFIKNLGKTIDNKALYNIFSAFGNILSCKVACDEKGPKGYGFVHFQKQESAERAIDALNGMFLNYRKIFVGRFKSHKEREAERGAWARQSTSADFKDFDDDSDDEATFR
GUGGUUA: -0.113
CCCUAGC: -0.327
GACUCAC: -0.22
UUACUGA: -0.137
AAGAUAA: 0.698
GGCGGAG: 0.325
GCAUUAC: -0.0373
CGAAGCC: -0.267
AACGCAG: 0.158
UGUAGUG: -0.13
ACUGCCA: -0.164
GGCAACA: 0.309
GGGUUAA: 0.35
ACGCGAU: -0.0718
ACGGCUA: 0.00436
GUUCCAC: -0.273
UGGUUGA: -0.144
CUCCGGA: -0.159
ACGAGCU: -0.0301
UCAGUGC: -0.277
AUAGAAA: 2.01
CCGGUAG: -0.133
CUGCAGG: -0.0518
AUAGAAC: 0.187
UAUGGGC: 0.0424

Study 4
Target: RNA binding protein fox-1 homolog 2, RRM domain, GST-SBP tag (RBFOX2, Homo sapiens, UniProt O43251-10, residues 100-194)
Method: RNA Bind-n-Seq
Form: RNA
Matrix: in vitro
Concentration: 365 nM
Setting: natural RNA segment, single round, ends assumed
Baseline: no-protein control
Direction: higher = stronger binding
Endpoint: RBNS enrichment (R)
Construct (chain): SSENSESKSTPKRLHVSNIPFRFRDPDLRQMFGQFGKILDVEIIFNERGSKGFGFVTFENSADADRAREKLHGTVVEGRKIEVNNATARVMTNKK
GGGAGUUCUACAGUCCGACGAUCUCUCUCUCUCUCUCUGUGUUUCCUCCAGCCCUUGUCUCGGAGACGGUGUUUUCCUCCCUUGCCCCAUUAUCUUUUCACCUCCCAGGUCUACCAUUUCAUGGUGGUCGUUGUGGAAUUCUCGGGUGCCAA: 0.975
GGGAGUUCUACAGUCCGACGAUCUGAAAGCCCUGACUUGGUUCUUGGCUUCUACUGUACUAGUUACUAGUUACUGGUACUGUUGCCAAGCAAUCUGCUUGGAAUUUGUGGAUCCCUGCUGUUCCCUAAUCCCAUGGAAUUCUCGGGUGCCAA: 0.202
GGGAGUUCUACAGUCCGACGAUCACCUAGGCAGCCUUGUAUCCAUAGAAAGCCUCCACUGCUGGGCCGGGGAGGGGGUUGUGGUAAGGGCCCUCUGGAAAUCAAGCAGAGAAUGCCUUUGCAGUGGUCUCCCGUGGAAUUCUCGGGUGCCAA: 0.413
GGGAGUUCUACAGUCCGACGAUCUGUUGCAUUAUUUUGAAUAUUGUCUUUUCAUUUUAAUAAAGUUAUAUUACUUAUUUAUGACACCGUUAAUAAUGUGUCUUGUCUAAACUCUUAUAGGAUGUCUCAAGCAAUGGAAUUCUCGGGUGCCAA: 0.718
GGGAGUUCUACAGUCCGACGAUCGCCAUCUGGAAUGCAAGGUGAGACUGGCCAGCCGGUCUGACUCUGAUCCCAGGUGACUGGCUCUUGUGAAGAGUCUUAAGUGUCCUGUGGUACCGUAGAGUGGAAAUGAUUGGAAUUCUCGGGUGCCAA: 0.543
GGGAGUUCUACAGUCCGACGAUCAUAAGUUCUUAAGAUGUGUUGGCAGUAUUGCGUCACCCACGGCCGUCCCGGGGGCUGAACGUGUGGCGUUUGGUUACUGAAGCCUGCUCAGGCGAAGCUGGGUCUUGUGCUGGAAUUCUCGGGUGCCAA: 0.275
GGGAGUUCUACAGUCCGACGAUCCUACACCGGUAGCCUUCGCUGUCUGUCAGUCAGGACCUCUGGUAUAGGUGAUGUAAAAUAACCGUACAAUAUUAUGCAUGCUAUCCCAUAAUGCUUAGUGACUGUAUGAUUGGAAUUCUCGGGUGCCAA: 0.734
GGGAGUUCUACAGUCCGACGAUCGCCAUUAGAAUAUCUUGCCUGAUAAGAGUGUUUUUGUUUACCUGUGGGCCUUGGGCCAUGCAGUAUCAGCUUGACCUUGCAAGGUCAAGCUGAGGAGACUAAGUUAGCCAUGGAAUUCUCGGGUGCCAA: 0.689
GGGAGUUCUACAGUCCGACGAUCGUCCCUGCACUCCCUUGGUUGCCAAAAAAAUGAUAACUUAAAUCCCUUCCAGACUUAAGAAUUUUAUGGCAUGGCCCAAUUGAUAUAAACAUUUAGAAGGAAAUGAAAAGUGGAAUUCUCGGGUGCCAA: 0.494
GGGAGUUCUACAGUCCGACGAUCUAUAAUUUAAGGUAUUUAUGUUCUUCUCUGUGAGAAGGUUUAUUGUUAAUACAAGGUAUAAAAAACACAUGAUAUGCCCUCUCCUGCCAAUAUAACCAGCUAAUAUUGUCUGGAAUUCUCGGGUGCCAA: 0.416
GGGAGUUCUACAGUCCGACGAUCACAGAAGCAAGCAAAUAAAGUCAGGAAGAAAUAUAUAUAUGAGAUAAUAUAGAUUGUAUUGAAAUCUUUCUGCCUGCCAGCGAGGUUUUUUUUUUCUUUUCCCCUCUUGUUGGAAUUCUCGGGUGCCAA: 0.601
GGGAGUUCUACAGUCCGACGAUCGUCCUGAGUAGGAGUCCAGGACUCCCACUGUCUCAAUCUGCAAAUUGUUCCUAUCCAGGUUCAGGGCCUUCAGGGGGCCUCUUUUCAUUUUCUCCCACAGGCCUCUCUUUUGGAAUUCUCGGGUGCCAA: 0.814

Study 5
Target: Centromere-binding protein 1, full length, His-tagged (CBF1, Saccharomyces cerevisiae, UniProt P17106, residues 1-351)
Sequence of UniProt P17106 (whole entry, looked up): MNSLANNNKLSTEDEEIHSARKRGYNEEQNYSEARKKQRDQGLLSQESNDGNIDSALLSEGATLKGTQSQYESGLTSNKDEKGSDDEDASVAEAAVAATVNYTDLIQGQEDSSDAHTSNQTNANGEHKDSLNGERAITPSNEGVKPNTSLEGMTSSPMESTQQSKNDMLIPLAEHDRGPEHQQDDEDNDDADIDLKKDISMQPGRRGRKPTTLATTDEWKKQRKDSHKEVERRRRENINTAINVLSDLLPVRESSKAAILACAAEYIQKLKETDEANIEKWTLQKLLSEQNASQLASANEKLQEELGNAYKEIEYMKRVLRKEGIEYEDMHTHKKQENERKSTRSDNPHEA
Method: competition protein-binding microarray
Form: double-stranded DNA, one strand shown
Matrix: in vitro
Concentration: 2 µM
Setting: whole 60-bp probe, lowest competitor level
Added: Pho4 competitor, 0.05 µM
Direction: higher = stronger binding
Endpoint: fluorescence intensity
GGTTCCATTAGTGATGGCGTGCTTTGCTCAACACAAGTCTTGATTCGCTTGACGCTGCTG: 71.2 a.u.
GCGTCTGCTCCCCATCACGATACCCGAGGTGCAGGCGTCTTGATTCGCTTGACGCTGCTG: 88.7 a.u.
GGGAATCCAGGCAGACACGTGCTACCGAGACTTTAAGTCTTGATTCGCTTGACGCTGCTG: 1470 a.u.
CTTTCCCGATCTTGACAGGTGGGTGTAGCACATTTGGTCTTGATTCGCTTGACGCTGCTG: 69.9 a.u.
TACTGCTTCCAGGTCCACGTTCTTCTTTTTGCCTCCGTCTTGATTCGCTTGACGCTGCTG: 86 a.u.
TTGATATCTGAAGTTGCTCCCAAACAAATCAGAGGAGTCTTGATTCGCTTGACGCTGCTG: 77.4 a.u.
CCGAAAAGTGAAGATGATGTGATATTGGGCGAGAGCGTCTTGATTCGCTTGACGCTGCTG: 88.3 a.u.
CAGGACTCCATCCATTACATGACAAGGGAAGCGCCCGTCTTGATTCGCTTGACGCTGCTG: 59.8 a.u.
GACAGCGACGGTAAACGCGTGTCGGTCGAGAAGGAGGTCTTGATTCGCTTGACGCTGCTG: 80.6 a.u.
TCATTATTGAAAGTGAACGTGATTGTGAACCGCTTGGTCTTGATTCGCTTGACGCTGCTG: 292 a.u.
GCATATTGAAACCATCACGGGAACGAGAAGAATGGCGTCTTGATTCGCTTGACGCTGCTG: 316 a.u.
CTTTCCCGATCTTGTGTCGTGGGTGTAGCACATTTGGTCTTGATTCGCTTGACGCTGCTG: 75.4 a.u.
CTTTCCCGATCTTGCACTGTGGGTGTAGCACATTTGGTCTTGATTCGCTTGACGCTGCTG: 74.7 a.u.
TCAAACCTGGCTCACCACGTGGGACATAAGCATATGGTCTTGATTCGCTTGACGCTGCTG: 918 a.u.
GTCTTGTCTCATTGGGACGTGGGTGTCCCCACTTCAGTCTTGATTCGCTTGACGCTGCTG: 57.6 a.u.
GTCTTGTCTCATTTTCACGTGCGATTCCCCACTTCAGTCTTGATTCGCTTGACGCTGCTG: 583 a.u.
TAGGAAGAACCGGTTCTCGTGGTGATGTCCCCCAAGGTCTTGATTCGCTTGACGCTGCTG: 79.3 a.u.
TTTTAGCCCCACCTCCAGGTGATGCTTATTTGCTAGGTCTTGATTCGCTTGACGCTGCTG: 68.5 a.u.
CTAACGAAGGTTTGTCACCGCACTTACAAGCCAAGTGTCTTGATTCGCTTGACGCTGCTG: 65.7 a.u.
TGCGCAACAACTTGTCACCGTACTTTATGTCTAGAAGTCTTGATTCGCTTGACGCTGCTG: 76.1 a.u.
TTTTCTAAGCTTTGTCGCGTGAGATCGCTTCTCATTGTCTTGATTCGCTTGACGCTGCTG: 97 a.u.
TTGGTGAAGGTTCCTCTCGTGAAGACGCTGCTTTGGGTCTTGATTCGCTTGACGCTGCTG: 67.6 a.u.
CATACCCAACCTTGACAAGTGGGTGAAGATATTTGTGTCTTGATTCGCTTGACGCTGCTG: 69.2 a.u.
ATCTGGGATTGAAGACACATGAGTTTTTTTCTCACCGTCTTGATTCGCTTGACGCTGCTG: 104 a.u.
CTTTCCCGATCTTTTCACGTGAACTTAGCACATTTGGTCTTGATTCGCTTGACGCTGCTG: 1050 a.u.

Mixed results
PhoQ, residues 284 288 289 292 302 303 SLSLLA — fold induction (PhoP, residues 12 14 15 18 19 SMASL (Escherichia coli, UniProt P23836); Sort-seq, refers to: YFP reporter; E. coli; PhoQ-PhoP variant library, added: 10 µM Mg2+; baseline: high Mg2+ state, higher = stronger signaling): 8.91

For quick reference, copied from above (study 3):
CCCUAGC: -0.327
CUGCAGG: -0.0518
ACGGCUA: 0.00436
AAGAUAA: 0.698
AUAGAAA: 2.01
UGUAGUG: -0.13
GUGGUUA: -0.113
ACUGCCA: -0.164
GUUCCAC: -0.273
GGCAACA: 0.309
GACUCAC: -0.22
